Results gathered from unrelated publications.
Protocols differ between the studies behind these lines. ± gives the spread as reported.

NCCC(=O)N1Cc2ccccc2-c2c(nnn2-c2nc(N)c3ncn(C4OC(CO)C(O)C4O)c3n2)-c2ccccc21 (mixture of isomers)  average fluorescence lifetime (frequency-domain fluorometry; methanol): 2.8 ns
N=C(N)NCCC[C@@H]1NC(=O)[C@H](Cc2c[nH]c3ccccc23)NC(=O)[C@@H](CC2CCCCC2)NC(=O)[C@@H]2CCCN2C(=O)[C@@H](NC(=O)CCc2ccccc2)CCCNC1=O  Tmax (C57BL/6J mouse, plasma; subcutaneous, 1 mg/kg, single dose): 28 min
COCCN(CC(N)=O)C(=O)CN(CCOC)C(=O)CN(CCOC)C(=O)CN(CCC(=O)O)C(=O)CN(CCOC)C(=O)CN(CCOC)C(=O)CN(CCOC)C(=O)CN(CCCCN)C(=O)CN(CCOC)C(=O)CN(CCOC)C(=O)CN(CCOC)C(=O)CN(CCOC)C(=O)CN(CCOC)C(=O)CN(CCOC)C(=O)C(Cc1ccccc1)NC(C)=O (stereo not shown)  pKa of COOH group (potentiometric titration with KOH; 100 x 1 mM KCl): 4.3
CC1=C(/C=C/C(=O)N2CCN(C(N)=O)CC2)C(C)(C)CCC1  photopic ERG amplitude (T17M RHO transgenic mouse; dose not given, 7 weeks; reference: vehicle): no effect
COC(=O)c1ccc(-c2cn(Cc3cc(Cl)ccc3O[11CH3])nn2)cc1  distribution volume VT (PET, 2TCM; rhesus macaque, cerebellum; dose not given): 0.981 mL/cm³
OC1(C(F)(F)F)CCN(c2nc(Nc3ccnc(C(F)(F)F)c3)nc(-c3cccc(C(F)(F)F)n3)n2)C1 (stereo not shown)  bioavailability (Sprague-Dawley rat, plasma; oral, 10 mg/kg): 142%
COc1ccc2c(c1)c(CC(=O)Nc1nnc(CCCCc3ccc(NC(=O)Cc4cccc(OC(F)(F)F)c4)nn3)[se]1)cn2C  fraction in plasma (ICR mouse, whole blood; 0.048 mg/mL, 0.033 h, 37 °C): ~70%
COc1ccc2cc(-c3ccc(-c4ccc(C)cn4)nc3)oc2c1  fluorescence lifetime (TCSPC; DMF): 1.8 ns
CC[C@H](C)[C@H](NC(=O)[C@H](CC(C)C)NC(=O)[C@H](Cc1c[nH]c2ccccc12)NC(=O)[C@H](C)NC(=O)[C@@H](NC(=O)[C@H](Cc1ccccc1)NC(=O)[C@H](CC(=O)O)NC(=O)[C@H](CCCNC(=N)N)NC(=O)[C@H](C)NC(=O)[C@H](C)NC(=O)[C@H](CC(C)C)NC(=O)[C@H](C)NC(=O)[C@H](CC(=O)O)NC(=O)[C@H](CC(C)C)NC(=O)[C@@H](NC(=O)[C@@H](NC(=O)[C@H](C)NC(=O)[C@H](CC(C)C)NC(=O)[C@H](CCC(=O)O)NC(=O)[C@H](CO)NC(=O)[C@H](CO)NC(=O)[C@H](Cc1ccccc1)NC(=O)[C@@H](NC(=O)CNC(=O)[C@H](CCC(=O)O)NC(=O)CNC(=O)[C@@H](N)Cc1c[nH]cn1)[C@@H](C)O)[C@@H](C)O)[C@@H](C)CC)[C@@H](C)CC)C(=O)N[C@@H](C)C(=O)N[C@H](C(=O)N[C@@H](CCCCN)C(=O)N[C@H](C(=O)N[C@H](C(=O)N[C@@H](CC(=O)O)C(=O)N[C@@H](CCCCN)C(=O)N[C@@H](CCCCN)C(=O)O)[C@@H](C)O)[C@@H](C)CC)[C@@H](C)O  AUCtau (immunoaffinity LC-MS/MS; healthy human subjects, plasma; subcutaneous, 10 mg once weekly, day 36 after 6 doses, steady state, geometric mean): 15.2 nM·h
C[C@H](CN(C)Cc1ccccc1)NC(=O)c1ccc(-c2noc(C(F)(F)[18F])n2)cc1  brain-to-heart ratio (PET; Sprague-Dawley rat, female, brain and heart; intravenous, 30 min; reference: brain SUV over heart SUV): 3.01 ± 0.23
CC(C)[C@H](NC(=O)[C@@H]1CCCN1C(=O)[C@H](CCCNC(=N)N)NC(=O)[C@H](CS)NC(=O)[C@H](Cc1c[nH]c2ccccc12)NC(=O)[C@H](CCCNC(=N)N)NC(=O)[C@@H](Cc1ccccc1)NC(=O)[C@H](Cc1c[nH]cn1)NC(=O)[C@H](CCC(=O)O)NC(=O)[C@H](CS)NC(=O)[C@H](CS)NC(=O)CNC(=O)[C@@H]1CC(=O)N[C@@H](CCCNC(=N)N)C(=O)NCC(=O)N[C@@H](CC(=O)O)C(=O)N[C@H](Cc2ccc(O)cc2)C(=O)N1)C(N)=O [technetium-99m labelled]  tumour-to-tissue ratio (C57 mice B16/F1 melanoma female; iv, 2 h, together with: NDP-MSH blockade; reference: tumour over liver): 1.01
COCC1CN(C2CCN(c3cc(OC)c(Nc4ncc(Br)c(Nc5ccc6c(c5P(C)(C)=O)OCCO6)n4)cc3C)CC2)C1  treatment-related Weak, all grades (human patients; oral, 10 to 240 mg once daily): 18.5%
CC12CC3CC(C)(C1)CC(NC(=O)Nc1ccc(C(=O)N4CCCC(C(N)=O)C4)cc1)(C3)C2 (stereo not shown)  Vz (Sprague Dawley rats, both sexes, plasma; oral, 10 mg/kg): 224 L
CC(C)C[C@H](NC(=O)CNC(=O)[C@H](Cc1ccccc1)NC(=O)[C@H](CO)NC(=O)[C@H](CC(N)=O)NC(=O)[C@H](Cc1c[nH]c2ccccc12)NC(=O)[C@H](CC(N)=O)NC(=O)[C@@H](N)Cc1ccc(O)cc1)C(=O)N[C@@H](CCCNC(=N)N)C(=O)N[C@@H](Cc1ccccc1)C(N)=O  time to undetectable plasma (rat, plasma; intravenous, 1 mg/kg): 2 h
CC(C)[C@H](NC(=O)CNC(=O)[C@H](CCC(N)=O)NC(=O)[C@H](C)N)C(=O)O  volume of distribution (human, both sexes, plasma; intravenous infusion, 90 mg/kg/h, 2 h infusion, geometric mean): 13 L/kg
CC(C)(O)c1ncc([S@](N)(=O)=NC(=O)Nc2c3c(cc4c2CCC4)CCC3)s1  Tmax (healthy human volunteers, plasma; oral, 100 mg once daily, day 14, spray-dried dispersion): 180 min
CNC(=O)N[C@]1(C)CCC[C@@]2(C)C3CC[C@@]4(C)C[C@]3(CCC21)CC4=O (single isomer, unassigned)  relative error (processed rat plasma; 1.5 ng/mL, 24 h, 4 °C, autosampler stability; reference: nominal concentration): -2.7%
CCOc1c(C(C)(C)O)sc2cnc(Nc3ccc(N4CCC(N5CC6(COC6)C5)CC4)cc3OC)nc12  action potential amplitude change (New Zealand rabbit, male, isolated Purkinje fibres; 30 µM, 45 min, pacing 1 Hz): -2%
O=C(O)C1CN(Cc2ccc(-c3noc(-c4ccc(OCC[18F])c(C(F)(F)F)c4)n3)cc2)C1  tracer uptake (rat, heart; intravenous, 1 h): 0.379 %ID/g
C[C@H]1NSc2nc(=O)c3[nH]ccc3n2Cc2ccc(Cl)cc21  exposure ratio (Sprague-Dawley rat, both sexes, plasma; oral, 125 mg/kg/day; reference: rat over human clinical doses): ≥ 36
CCCC[C@H](NC(=O)CNC(=O)CNC(=O)CN1CCN(CC(=O)O)CCN(CC(=O)O)CC1)C(=O)N[C@H]1CC(=O)NCCCC[C@@H](C(N)=O)NC(=O)[C@H](Cc2c[nH]c3ccccc23)NC(=O)[C@H](CCCNC(=N)N)NC(=O)[C@@H](Cc2ccccc2)NC(=O)[C@H](Cc2c[nH]cn2)NC1=O [copper-64 labelled]  uptake ratio (female C57 mouse, B16/F1 melanoma; intravenous, 0.037 MBq, 4 h; reference: tumour over heart): 31
C#CCOc1ccc(/C=C2\SC(=O)N(CC(=O)NCc3ccccc3)C2=O)cc1  Kirkwood-Buff integral G1,3 (inverse Kirkwood-Buff integrals; binary solvent mixture; 298.15 K, mole fraction x1 0.50): -261 cm³/mol
CN(O)C(=O)CCC(=O)NCCCN(CCCCN(CCCNC(=O)CCC(=O)N(C)O)C(=O)CCC(=O)N(C)O)C(=O)CCC(=O)N(C)O.[89Zr]  tracer uptake (mouse, bone; 4 h): 0.02 %ID/g
CC[C@H](C)[C@H](NC(=O)[C@H](C)NC(=O)CNC(=O)[C@H](Cc1ccccc1)NC(=O)[C@H](CC(N)=O)NC(=O)[C@H](CC(N)=O)NC(=O)[C@H](CO)NC(=O)[C@H](CO)NC(=O)[C@H](Cc1c[nH]cn1)NC(=O)[C@@H](NC(=O)[C@H](CC(C)C)NC(=O)[C@H](Cc1ccccc1)NC(=O)[C@H](CC(N)=O)NC(=O)[C@H](C)NC(=O)[C@H](CC(C)C)NC(=O)[C@H](CCCNC(=N)N)NC(=O)[C@H](CCC(N)=O)NC(=O)[C@@H](NC(=O)[C@H](C)NC(=O)[C@@H]1CSSC[C@H](NC(=O)[C@@H](N)CCCCN)C(=O)N[C@@H](CC(N)=O)C(=O)N[C@@H]([C@@H](C)O)C(=O)N[C@@H](C)C(=O)N[C@@H]([C@@H](C)O)C(=O)N1)[C@@H](C)O)C(C)C)C(=O)N[C@@H](CC(C)C)C(=O)N1CCC[C@H]1C(=O)N1CCC[C@H]1C(=O)N[C@H](C(=O)N[C@@H](CC(N)=O)C(=O)N[C@H](C(=O)NCC(=O)N[C@@H](CO)C(=O)N[C@@H](CC(N)=O)C(=O)N[C@H](C(=O)N[C@@H](Cc1ccc(O)cc1)C(N)=O)[C@@H](C)O)C(C)C)[C@@H](C)O  collision cross section (ion mobility mass spectrometry; nitrogen drift gas; monomer charge +4, compact conformer): 545 ± 14.4 Å²
C[C@]12C[C@H](c3ccc(S(C)(=O)=O)cc3)C3=C4CCC(=O)C=C4CC[C@H]3[C@@H]1CC[C@@]2(O)C(F)(F)C(F)(F)F  maximal oral bioavailability (rat liver microsomes; 100 % absorption assumed): 87%
Oc1ccc2ccccc2c1/N=N/c1ccccc1  measured concentration (rat whole blood QC samples; 16.0 µg/L, 2 h, room temperature, short-term stability): 15.7 µg/L
COc1ccc(COC[C@](O)(CNCc2ccccc2)[C@@H]2CC[C@@H](C)C[C@H]2OCc2ccc(OC)cc2)cc1  permeability (PAMPA-GI; phosphatidylcholine-cholesterol membrane; 500 µM, 4 h, pH 6.5, 37 °C, 5% DMSO): 34 ± 4 ×10⁻⁶ cm/s
CCCC[C@H](NC(=O)CN1CCC(NC(=O)CN2CCN(CC(=O)O)CCN(CC(=O)O)CCN(CC(=O)O)CC2)CC1)C(=O)N[C@H]1CC(=O)NCCCC[C@@H](C(N)=O)NC(=O)[C@H](Cc2c[nH]c3ccccc23)NC(=O)[C@H](CCCNC(=N)N)NC(=O)[C@@H](Cc2ccccc2)NC(=O)[C@H](Cc2c[nH]cn2)NC1=O  tumour to muscle ratio (biodistribution; C57BL/6J mouse male tumour-bearing; 2 h post injection, unblocked; reference: tumour over muscle): 211 ± 20.9

A few entries again:
CC12CC3CC(C)(C1)CC(NC(=O)Nc1ccc(C(=O)N4CCCC(C(N)=O)C4)cc1)(C3)C2 (stereo not shown)  Vz (Sprague Dawley rats, both sexes, plasma; oral, 10 mg/kg): 224 L
CC(C)C[C@H](NC(=O)CNC(=O)[C@H](Cc1ccccc1)NC(=O)[C@H](CO)NC(=O)[C@H](CC(N)=O)NC(=O)[C@H](Cc1c[nH]c2ccccc12)NC(=O)[C@H](CC(N)=O)NC(=O)[C@@H](N)Cc1ccc(O)cc1)C(=O)N[C@@H](CCCNC(=N)N)C(=O)N[C@@H](Cc1ccccc1)C(N)=O  time to undetectable plasma (rat, plasma; intravenous, 1 mg/kg): 2 h
